Assay results collected from several papers.
Numbered parts are unrelated; each lists some results of a single study. Several values in a cell are separate wells, animals, samples, runs or records. Substitutions count along the parent as printed.

Block 1
Target: vanadate, free oxyanion
Method: microfluidic competitive inhibition
Sample: in vitro, cell-free expressed
Concentration: not given
Notes: derived from inhibition constants, unchanged parent 676 nM
Direction: lower = stronger binding
Measurement: oxyanion analog dissociation constant
Starting sequence: PafA, mature enzyme, eGFP fusion (Elizabethkingia meningoseptica, UniProt Q9KJX5); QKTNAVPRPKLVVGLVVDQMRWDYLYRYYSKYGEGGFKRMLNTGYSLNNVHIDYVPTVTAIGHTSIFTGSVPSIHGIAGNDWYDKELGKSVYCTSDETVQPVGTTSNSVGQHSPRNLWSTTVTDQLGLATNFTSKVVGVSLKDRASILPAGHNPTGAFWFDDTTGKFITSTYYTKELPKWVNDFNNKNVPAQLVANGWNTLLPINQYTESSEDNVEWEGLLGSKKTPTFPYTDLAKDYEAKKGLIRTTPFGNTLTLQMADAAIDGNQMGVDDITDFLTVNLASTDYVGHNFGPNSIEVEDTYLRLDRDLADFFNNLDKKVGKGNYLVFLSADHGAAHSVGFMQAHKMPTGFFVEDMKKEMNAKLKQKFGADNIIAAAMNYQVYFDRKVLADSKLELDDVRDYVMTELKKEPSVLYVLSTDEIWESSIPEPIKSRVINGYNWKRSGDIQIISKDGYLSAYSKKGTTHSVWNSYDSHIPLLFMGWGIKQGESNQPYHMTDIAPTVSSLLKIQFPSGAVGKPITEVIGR
Variant = L117V; result = 656 nM
Variant = T3V; result = 547 nM
Variant = N252G; result = 914 nM
Variant = D84V; result = 874 nM
Variant = D420V; result = 721 nM
Variant = E421V; result = 695 nM
Variant = V388A; result = 772 nM
Variant = R307V; result = 1060 nM

Block 2
Molecule: meglumine antimoniate
Organism: Leishmania infantum chagasi
Method: qPCR
Species: golden hamster chronic infection
Route: intraperitoneal
Dose: 50 mg/kg/day
Time: 10 days
Measurement: threshold cycle
measured = IFN-γ mRNA; sample = spleen; result = 33.8 cycles and 32.8 cycles and 29.9 cycles and 33.4 cycles and 28.3 cycles and 36 cycles
measured = IL4 mRNA; sample = spleen; result = 28.5 cycles and 33.1 cycles and 33 cycles and 30.8 cycles and 32.6 cycles and 31.3 cycles
measured = microglobulin mRNA; sample = spleen; result = 22.6 cycles and 21.9 cycles and 18.1 cycles and 18.2 cycles
measured = TNF mRNA; sample = liver; result = 26 cycles and 28.2 cycles and 28.6 cycles and 27.6 cycles and 28 cycles and 28.5 cycles

Block 3
Target: UDP-N-acetylglucosamine--peptide N-acetylglucosaminyltransferase 110 kDa subunit (OGT, Homo sapiens, UniProt O15294)
Read-out: binding
Method: phage display NGS
Molecule type: peptide
Concentration: concentration not given
Baseline: input library
Measurement: enrichment fold change
Residues (O15294 1-1046): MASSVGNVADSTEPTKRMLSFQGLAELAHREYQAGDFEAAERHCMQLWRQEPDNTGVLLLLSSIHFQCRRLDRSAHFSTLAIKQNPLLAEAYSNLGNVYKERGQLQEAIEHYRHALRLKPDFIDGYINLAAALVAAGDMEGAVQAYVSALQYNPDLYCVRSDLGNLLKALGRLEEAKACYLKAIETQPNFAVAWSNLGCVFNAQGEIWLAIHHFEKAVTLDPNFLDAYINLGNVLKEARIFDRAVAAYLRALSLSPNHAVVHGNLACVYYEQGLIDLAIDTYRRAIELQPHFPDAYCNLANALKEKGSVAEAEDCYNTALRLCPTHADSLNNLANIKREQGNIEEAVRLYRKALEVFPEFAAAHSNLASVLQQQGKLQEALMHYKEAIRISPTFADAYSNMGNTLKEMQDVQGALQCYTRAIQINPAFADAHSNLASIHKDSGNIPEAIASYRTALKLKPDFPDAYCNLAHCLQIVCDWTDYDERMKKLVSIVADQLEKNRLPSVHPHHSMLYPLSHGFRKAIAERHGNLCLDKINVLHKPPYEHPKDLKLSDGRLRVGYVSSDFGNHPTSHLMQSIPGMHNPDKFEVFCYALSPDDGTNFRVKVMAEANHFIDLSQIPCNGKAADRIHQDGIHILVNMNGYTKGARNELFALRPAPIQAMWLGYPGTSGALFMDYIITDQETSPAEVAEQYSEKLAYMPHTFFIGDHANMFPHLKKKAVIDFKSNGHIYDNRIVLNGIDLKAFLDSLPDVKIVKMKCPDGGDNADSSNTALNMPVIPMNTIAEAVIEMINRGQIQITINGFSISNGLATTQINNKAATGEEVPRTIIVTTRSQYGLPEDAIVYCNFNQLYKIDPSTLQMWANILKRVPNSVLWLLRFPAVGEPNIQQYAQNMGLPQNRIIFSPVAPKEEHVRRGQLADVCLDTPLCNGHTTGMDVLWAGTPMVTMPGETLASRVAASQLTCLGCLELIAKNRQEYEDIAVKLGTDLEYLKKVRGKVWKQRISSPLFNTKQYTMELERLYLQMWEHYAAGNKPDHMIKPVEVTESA
Sequence = HLHQDHISHPFEHEA; result = 5.72
Sequence = HTYHHLLHAEDGHSY; result = 14.8
Sequence = HQSHYQHTSPAIIHK; result = 4.87
Sequence = FKDGRHAERHFFHQH; result = 9.47
Sequence = QPQIHLHHHPSYTGR; result = 3.67
Sequence = HRVQFPWPHDAGHRH; result = 6.86
Sequence = KFMPVYQIIAEMGAF; result = 1.65
Sequence = HIHWTGESPSPHWVH; result = 2.49

Other studies, line by line
SMILES = CN(C)c1cc(NC(=O)CNC(C)(C)C)c(O)c2c1C[C@H]1C[C@H]3[C@H](N(C)C)C(O)=C(C(N)=O)C(=O)[C@@]3(O)C(O)=C1C2=O; cell line = HEK-293T/ACE2; concentration = concentration not given; time = 16 (unit not given); baseline = vehicle; measurement = viability; result = 100%

For quick reference, copied from above (block 3):
Sequence = HTYHHLLHAEDGHSY; result = 14.8
Sequence = HQSHYQHTSPAIIHK; result = 4.87
Sequence = FKDGRHAERHFFHQH; result = 9.47
